Assay results from different studies.
± gives the spread as reported.
Target: 5-hydroxytryptamine receptor 2A (HTR2A, Homo sapiens, UniProt P28223)
Sequence of UniProt P28223 (whole entry, looked up): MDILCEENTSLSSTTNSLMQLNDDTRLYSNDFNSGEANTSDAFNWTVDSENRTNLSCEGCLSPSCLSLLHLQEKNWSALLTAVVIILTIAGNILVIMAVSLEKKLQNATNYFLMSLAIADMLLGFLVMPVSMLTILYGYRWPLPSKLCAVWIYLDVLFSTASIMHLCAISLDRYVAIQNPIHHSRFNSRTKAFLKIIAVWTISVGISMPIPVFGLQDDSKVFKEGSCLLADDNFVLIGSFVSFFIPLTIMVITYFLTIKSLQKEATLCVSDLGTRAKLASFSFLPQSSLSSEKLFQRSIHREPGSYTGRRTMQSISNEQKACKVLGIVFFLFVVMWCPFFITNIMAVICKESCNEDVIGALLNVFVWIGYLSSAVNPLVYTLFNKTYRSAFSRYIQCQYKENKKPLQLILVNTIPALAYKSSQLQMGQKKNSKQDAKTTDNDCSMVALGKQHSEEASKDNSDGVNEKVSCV

Structure (SMILES)	assay	test system	setting	how to read	endpoint	value
CCN(CC)CCCC[C@H](NC(=O)[C@H](CC(C)C)NC(=O)[C@H](C)NC(=O)[C@H](Cc1ccccc1)NC(=O)c1ccc(C(C)(C)C)cc1)C(=O)N[C@@H](CO)C(=O)OC	antagonist, radioligand binding	–	10 µM	reference: control binding	specific binding	61.2%
COc1c(O)cc2c3c1-c1cc4c(cc1CC3N(C)CC2)OCO4 (centres unmarked)	calcium flux, antagonist, FLIPR	HEK293	with: serotonin	–	apparent Kb	282 ± 37 nM
CNC(C)Cc1ccc2n[se]nc2c1 (centres unmarked)	agonist	–	–	reference: 5-HT	Emax	45.8 ± 4.1%
COc1cc(CCNC(C)c2ccccc2O)c(OC)cc1C#N (centres unmarked)	agonist	–	–	–	Emax	97%
CN1CCN(c2cc(-c3ccncc3)c(-c3ccc4ccccc4c3)nn2)CC1	antagonist, FLIPR	–	10 µM	–	inhibition	1.3%
COc1cc(CCNC(c2ccccc2O)C2CC2)c(OC)cc1C#N (centres unmarked)	agonist	–	–	–	Emax	86%
COc1cc(CC(C)N)c(OC)cc1I (racemic)	binding, agonist, radioligand binding	–	–	–	Hill coefficient	0.7
COc1c(O)c(I)c2c3c1-c1cc4c(cc1CC3N(C)CC2)OCO4 (centres unmarked)	calcium flux, antagonist, FLIPR	HEK293	with: serotonin	–	apparent Kb	133 ± 27 nM
CN1CCN(c2nc(N)c3ccccc3n2)CC1	radioligand binding, radioligand competition binding	–	0.1 µM, mean of two	reference: control specific binding	inhibition	6.7%
COc1cc(CCNC(C)c2ccccc2O)c(OC)cc1Br (centres unmarked)	agonist	–	–	–	Emax	97%
COc1c(O)c(Br)c2c3c1-c1cc4c(cc1CC3N(C)CC2)OCO4 (centres unmarked)	calcium flux, antagonist, FLIPR	HEK293	with: serotonin	–	apparent Kb	126 ± 30 nM
